Experimental data pooled from the literature.
Lines come from different studies, so protocols differ. ± marks the error that the study gave.

SMILES | cell line | test | system | setting | IC50
Cc1ccc([N+](=O)[O-])cc1S(=O)(=O)N(C)/N=C/c1cnc2ccc(Br)cn12 | NCI-H322M | cell growth or viability |  |  | 1.5 µM
Cc1ccnc(-c2cc(C(=O)O)ccn2)c1.F[P-](F)(F)(F)(F)F.F[P-](F)(F)(F)(F)F.[Ru+2].c1ccc(-c2ccccn2)nc1.c1ccc(-c2ccccn2)nc1 | MCF-10A | cell viability |  | 48 h, dark | > 100 µM
O=C(NCCOCCNC(=O)c1cc2ccccc2c2ccccc12)c1cc(C(=O)N2CCNCCNCCNCC2)c(O)c(C(=O)N2CCNCCNCCNCC2)c1 | WI-38 | cell growth or viability, MTT |  | 24 h | > 1000 µM
CC1C(O)CC2(CO)CCC3(C)C(=CCC4C(C)(CCC(=O)O)C(C(C)(O)CO)CCC43C)C2C1C (stereo not drawn) | RAW264.7 | NO production, Griess |  | 24 h, pre-treatment before HMGB1, together with: HMGB1 0.5 µg/mL | > 100 µM
Cn1ncc(-c2ccc3c(=O)[nH]nc(CN)c3c2)c1-c1c(F)c(Cl)cc(OC2CC2)c1C#N | NCI-H1651 | cell viability, inhibitor, CellTiter-Glo |  | 120 h, baseline-subtracted | 0.05 µM
CC[C@H](C)[C@H](NC(=O)[C@H](CCCCN)NC(=O)[C@H]1CCC[C@@H]1NC(=O)[C@H](CC(C)C)NC(=O)CN)C(=O)N[C@H](CC(=O)N[C@@H](CCCCN)C(=O)N[C@@H](CCCCN)C(=O)N[C@H]1CCC[C@@H]1C(=O)N[C@@H](CC(C)C)C(=O)N[C@@H](CCCCN)C(=O)N[C@H](CC(=O)N[C@@H](Cc1ccccc1)C(N)=O)CC(C)C)[C@@H](C)CC | NIH 3T3 | cytotoxicity |  |  | 9.4 µg/mL
CC(C)=CCc1c(OCC2OC2(C)C)ccc2ccc(=O)oc12 (stereo not drawn) | COLO 205 | cell growth or viability, MTT |  | 72 h | > 100 µM
CC(=O)NCCOCCOCCNC(=O)c1cc(C(=O)N2CCNCCNCCNCC2)c(O)c(C(=O)N2CCNCCNCCNCC2)c1 | WI-38 | cell growth or viability, MTT |  | 24 h | > 1000 µM
CC(C)=CC1OC(C)(C)C2C=C3C(=O)C(Cl)=CC(O)C3C3C(O)C4OC4C(=O)C132 (stereo not drawn) | SU-DHL-1 | cell growth or viability, MTS |  |  | 1.4 µM
COc1cc(-c2cn(C)c(=O)c3cnccc23)c(OC)cc1Cn1ccnc1 | MOLM-13 | cell growth or viability, ATP luminescence |  |  | 4 µM
C=CC(=O)N1CCCC(n2c(=O)c3ncccc3n(Cc3ccc(Oc4ccccc4)cc3)c2=O)C1 (stereo not drawn) | SU-DHL-1 | cell growth or viability, MTT |  | 72 h | 12 µM
CC(C)(C)c1cnc(CSc2cnc(NC(=O)C3CCN(C(=O)CCCCCCN4Cc5cc6c(cc5C4)C(=O)N(C4CCC(=O)NC4=O)C6=O)CC3)s2)o1 (stereo not drawn) | U-87 MG glioblastoma | cell viability, MTT |  |  | 0.0794 ± 0.002 µM
CC[C@H](C)[C@H](NC(=O)[C@H](CCCCN)NC(=O)[C@H]1CCC[C@@H]1NC(=O)[C@H](CC(C)C)NC(=O)CN)C(=O)N[C@H](CC(=O)N[C@@H](CCCCN)C(=O)N[C@@H](CCCCN)C(=O)N[C@H]1CCC[C@@H]1C(=O)N[C@@H](C)C(=O)N[C@@H](CCCCN)C(=O)N[C@@H](CO)CC(=O)N[C@@H](Cc1ccccc1)C(N)=O)[C@@H](C)CC | NIH 3T3 | cytotoxicity |  |  | 119 µg/mL
CCOc1cncc(-c2ccc(NC(=O)C3(c4ccnc(NS(=O)(=O)C5CC5)n4)CCOCC3)nc2)n1 | OCI-Ly18 | cell growth or viability, ATP luminescence |  | 72 h | 0.015 µM
COc1cc(-c2cc(C(C)=O)n3ccccc23)cc(OC)c1Cn1ccnc1 | EOL1 | cell growth or viability, ATP luminescence |  |  | 0.4 µM
NCc1ccc2c(c1)CN(C1CCC(=O)NC1=O)C2=O (stereo not drawn) | Huh-7 | cell growth or viability, ATP luminescence |  |  | 0.965 µM
CC[C@H](C)[C@H](NC(=O)[C@H](CCCCN)NC(=O)[C@H](Cc1ccccc1)NC(=O)C[C@H](CC(C)C)NC(=O)CN)C(=O)N[C@H](CC(=O)N[C@@H](CCCCN)C(=O)N[C@@H](CCCCN)C(=O)N[C@H](CC(=O)N[C@@H](C)C(=O)N[C@@H](CCCCN)C(=O)N[C@@H](CO)C(=O)N[C@H](CC(N)=O)Cc1ccccc1)[C@@H](C)CC)[C@@H](C)CC | NIH 3T3 | cytotoxicity |  |  | 26.4 µg/mL

SMILES | cell line | test | system | setting | IC50
COc1ccc(C(O)=CC(=O)c2ccc(C(C)(C)C)cc2)cc1.[Ru+2].c1ccc(-c2cccc(-c3ccccn3)n2)nc1.c1cnccn1 | HL-60 | cytotoxicity |  | dark | 0.55 µM
CC[C@H](C)[C@H](NC(=O)[C@H](CCCCN)NC(=O)[C@H](Cc1ccccc1)NC(=O)[C@H]1CCC[C@@H]1NC(=O)CN)C(=O)N[C@H](CC(=O)N[C@@H](CCCCN)C(=O)N[C@@H](CCCCN)C(=O)N[C@H]1CCC[C@@H]1C(=O)N[C@@H](C)C(=O)N[C@@H](CCC(=O)O)C(=O)N[C@@H](CO)C(=O)N[C@H](CC(N)=O)Cc1ccccc1)[C@@H](C)CC | NIH 3T3 | cytotoxicity |  |  | 102 µg/mL
CC#CC#C/C=C1/O[C@@]2(CC[C@@H](OC(C)=O)CO2)[C@H](O)[C@H]1O | RAW264.7 | NO release, inhibitor, Griess |  | LPS-stimulated | > 50 µM
C#CC[C@]1(O)C[C@H](C)N2CCc3cc(OCc4cc(C)cc(C)c4)c(OCc4cc(C)cc(C)c4)cc3[C@@H]2C1 (relative stereo) | ASPC1 | cell growth or viability, MTT |  |  | 0.802 µM
CC(C)c1ccc(N(C)c2ccc3c(c2)OCC[C@H]3CNc2cnccc2C(=O)O)cc1 | HLE | cell growth or viability, ATP luminescence |  | 7 days | 0.0113 µM
COc1cc(-c2cn(C)c(=O)c3cnccc23)cc(OC)c1Cn1ccnc1 | MOLM-13 | cell growth or viability, ATP luminescence |  |  | 12.6 µM
O=C(c1cc(Cc2n[nH]c(=O)c3ccccc23)ccc1F)N1CCN(C(=O)C2CC2)CC1 | DLD-1 BRCA2 knockout | cell viability |  |  | 0.017 µM
NC(=O)c1ccc(-c2ccccc2Cl)c2c3c([nH]c12)CC[C@@H](N)C3 | A-375 | cell growth or viability |  |  | 0.0293 µM
CCN(C(=O)c1cc(F)ccc1Oc1nncnc1N1CCC2(C1)CN(C(CCCN(C)CCOC)C(C)C)C2)C(C)C (stereo not drawn) | MOLM-14 | QuantiGene, measured: MEIS1 mRNA |  |  | 1.37 ± 0.073 µM
COC(=O)N1c2ccc3c(nc(Cc4ccccc4)n3[C@@H]3CCC[C@@H](C(=O)O)C3)c2CC[C@@H]1C | HCC1428 | cell growth or viability, ATP luminescence |  | 10 days | 0.66 µM
C=C(C)C(C)(C)CCC(C)C1CCC2(C)C3CCC4C(C)C(O)CCC45CC35CCC12C (stereo not drawn) | MDA-MB-231 breast cancer | cell viability, MTT | DMEM with 10% FBS | 48 h | > 200 µM
CN1CCC(N[C@H]2CCc3[nH]c4c(C(N)=O)ccc(-c5ccccc5Cl)c4c3C2)CC1 | B16F10 | cell proliferation |  | 96 h | 1.58 µM
NCCOc1cc(NC(=O)c2cc(OCc3cn([C@H]4O[C@@H](CO)[C@H](O)[C@@H](O)[C@@H]4O)nn3)cc(C(=O)Nc3cc(OCCN)c4ccccc4n3)n2)nc2ccccc12 | WI-38 | cell growth or viability, ATP luminescence |  | 72 h | > 40 µM
CC[C@H](C)[C@H](NC(=O)[C@H](CCCCN)NC(=O)[C@H]1CCC[C@@H]1NC(=O)[C@H](CC(C)C)NC(=O)CN)C(=O)N[C@@H](C)CC(=O)N[C@@H](CCCCN)C(=O)N[C@@H](CCCCN)C(=O)N[C@H]1CCC[C@@H]1C(=O)N[C@H](C(=O)N[C@@H](CCCCN)C(=O)N[C@@H](C)CC(=O)N[C@@H](Cc1ccccc1)C(N)=O)[C@@H](C)CC | NIH 3T3 | cytotoxicity |  |  | 516 µg/mL
O=C(Nc1cc(OCCN2CCCC2)c2ccccc2n1)c1cccc(C(=O)Nc2cc(OCCN3CCCC3)c3ccccc3n2)n1 | WI-38 | cell growth or viability, ATP luminescence |  | 72 h | 3.1 µM
CNS(=O)(=O)Nc1nccc(Cc2c(C)c3ccc(Oc4ncccc4F)cc3oc2=O)c1F | SK-MES-1 | cell viability |  | 7 days | 0.0066 µM

For quick reference, copied from above:
SMILES | cell line | test | system | setting | IC50
CC(=O)NCCOCCOCCNC(=O)c1cc(C(=O)N2CCNCCNCCNCC2)c(O)c(C(=O)N2CCNCCNCCNCC2)c1 | WI-38 | cell growth or viability, MTT |  | 24 h | > 1000 µM
CC(C)=CC1OC(C)(C)C2C=C3C(=O)C(Cl)=CC(O)C3C3C(O)C4OC4C(=O)C132 (stereo not drawn) | SU-DHL-1 | cell growth or viability, MTS |  |  | 1.4 µM
COc1cc(-c2cn(C)c(=O)c3cnccc23)c(OC)cc1Cn1ccnc1 | MOLM-13 | cell growth or viability, ATP luminescence |  |  | 4 µM
C=CC(=O)N1CCCC(n2c(=O)c3ncccc3n(Cc3ccc(Oc4ccccc4)cc3)c2=O)C1 (stereo not drawn) | SU-DHL-1 | cell growth or viability, MTT |  | 72 h | 12 µM
